{"data": "Measurements from different studies", "NAC transcription factor full length assumed": "NAC transcription factor full length assumed (Triticum aestivum, UniProt A0A7G7XYH6)", "SPC42 residues 1-134": "SPC42 fragment (Saccharomyces cerevisiae)", "gabR full length assumed": "gabR full length assumed (Bacillus subtilis, UniProt P94426)", "T1": "cas1/cas2 1-305; 1-94 (Escherichia coli); chain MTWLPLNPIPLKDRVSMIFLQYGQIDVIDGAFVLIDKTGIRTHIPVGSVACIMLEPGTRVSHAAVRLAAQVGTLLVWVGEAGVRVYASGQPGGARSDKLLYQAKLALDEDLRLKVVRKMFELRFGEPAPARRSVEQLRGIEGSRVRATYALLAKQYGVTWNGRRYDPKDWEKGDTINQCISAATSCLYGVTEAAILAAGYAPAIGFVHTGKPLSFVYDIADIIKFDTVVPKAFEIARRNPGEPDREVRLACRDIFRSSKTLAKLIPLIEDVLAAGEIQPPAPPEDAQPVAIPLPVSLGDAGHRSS; chain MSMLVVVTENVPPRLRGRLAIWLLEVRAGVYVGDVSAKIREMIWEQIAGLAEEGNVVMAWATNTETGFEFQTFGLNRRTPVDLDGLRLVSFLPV", "P1": "SFI1 residues 1-296 (Saccharomyces cerevisiae); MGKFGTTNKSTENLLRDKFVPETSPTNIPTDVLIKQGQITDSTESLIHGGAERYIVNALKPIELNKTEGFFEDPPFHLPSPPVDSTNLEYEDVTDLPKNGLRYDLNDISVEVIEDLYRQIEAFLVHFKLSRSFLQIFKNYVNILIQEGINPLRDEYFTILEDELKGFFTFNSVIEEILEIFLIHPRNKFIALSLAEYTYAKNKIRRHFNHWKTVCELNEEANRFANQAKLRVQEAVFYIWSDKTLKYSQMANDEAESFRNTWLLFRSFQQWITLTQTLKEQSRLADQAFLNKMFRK", "P2": "APOBEC3G/EYFP (Homo sapiens); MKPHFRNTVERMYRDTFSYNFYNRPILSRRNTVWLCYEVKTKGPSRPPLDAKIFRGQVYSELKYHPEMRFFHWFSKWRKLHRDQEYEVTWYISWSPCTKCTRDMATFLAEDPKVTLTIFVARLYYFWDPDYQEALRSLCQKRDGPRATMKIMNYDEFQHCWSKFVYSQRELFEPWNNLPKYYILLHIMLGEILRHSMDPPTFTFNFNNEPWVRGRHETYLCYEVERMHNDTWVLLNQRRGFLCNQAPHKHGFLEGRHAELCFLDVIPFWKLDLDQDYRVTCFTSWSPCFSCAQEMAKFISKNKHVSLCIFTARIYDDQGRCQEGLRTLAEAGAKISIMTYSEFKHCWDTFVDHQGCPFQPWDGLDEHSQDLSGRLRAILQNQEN; partner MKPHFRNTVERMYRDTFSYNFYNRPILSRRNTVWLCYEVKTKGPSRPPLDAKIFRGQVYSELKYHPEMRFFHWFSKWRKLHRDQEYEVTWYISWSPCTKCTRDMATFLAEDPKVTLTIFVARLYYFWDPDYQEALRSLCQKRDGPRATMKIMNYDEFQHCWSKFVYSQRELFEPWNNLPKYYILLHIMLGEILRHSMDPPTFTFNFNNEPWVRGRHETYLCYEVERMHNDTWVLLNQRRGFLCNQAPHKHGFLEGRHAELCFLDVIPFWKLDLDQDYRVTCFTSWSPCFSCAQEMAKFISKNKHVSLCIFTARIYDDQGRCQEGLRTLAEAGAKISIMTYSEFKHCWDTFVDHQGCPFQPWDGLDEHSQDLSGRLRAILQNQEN", "P3": "ALIS5 (Arabidopsis thaliana); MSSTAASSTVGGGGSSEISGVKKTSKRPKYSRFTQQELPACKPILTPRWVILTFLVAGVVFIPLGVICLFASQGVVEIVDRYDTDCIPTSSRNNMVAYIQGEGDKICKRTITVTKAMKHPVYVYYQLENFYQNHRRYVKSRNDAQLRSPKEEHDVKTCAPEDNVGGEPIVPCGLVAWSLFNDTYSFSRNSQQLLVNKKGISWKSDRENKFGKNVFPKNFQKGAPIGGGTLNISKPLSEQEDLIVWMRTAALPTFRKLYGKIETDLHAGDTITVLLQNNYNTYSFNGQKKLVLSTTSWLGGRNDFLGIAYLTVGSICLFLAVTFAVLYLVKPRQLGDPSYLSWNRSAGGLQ; partner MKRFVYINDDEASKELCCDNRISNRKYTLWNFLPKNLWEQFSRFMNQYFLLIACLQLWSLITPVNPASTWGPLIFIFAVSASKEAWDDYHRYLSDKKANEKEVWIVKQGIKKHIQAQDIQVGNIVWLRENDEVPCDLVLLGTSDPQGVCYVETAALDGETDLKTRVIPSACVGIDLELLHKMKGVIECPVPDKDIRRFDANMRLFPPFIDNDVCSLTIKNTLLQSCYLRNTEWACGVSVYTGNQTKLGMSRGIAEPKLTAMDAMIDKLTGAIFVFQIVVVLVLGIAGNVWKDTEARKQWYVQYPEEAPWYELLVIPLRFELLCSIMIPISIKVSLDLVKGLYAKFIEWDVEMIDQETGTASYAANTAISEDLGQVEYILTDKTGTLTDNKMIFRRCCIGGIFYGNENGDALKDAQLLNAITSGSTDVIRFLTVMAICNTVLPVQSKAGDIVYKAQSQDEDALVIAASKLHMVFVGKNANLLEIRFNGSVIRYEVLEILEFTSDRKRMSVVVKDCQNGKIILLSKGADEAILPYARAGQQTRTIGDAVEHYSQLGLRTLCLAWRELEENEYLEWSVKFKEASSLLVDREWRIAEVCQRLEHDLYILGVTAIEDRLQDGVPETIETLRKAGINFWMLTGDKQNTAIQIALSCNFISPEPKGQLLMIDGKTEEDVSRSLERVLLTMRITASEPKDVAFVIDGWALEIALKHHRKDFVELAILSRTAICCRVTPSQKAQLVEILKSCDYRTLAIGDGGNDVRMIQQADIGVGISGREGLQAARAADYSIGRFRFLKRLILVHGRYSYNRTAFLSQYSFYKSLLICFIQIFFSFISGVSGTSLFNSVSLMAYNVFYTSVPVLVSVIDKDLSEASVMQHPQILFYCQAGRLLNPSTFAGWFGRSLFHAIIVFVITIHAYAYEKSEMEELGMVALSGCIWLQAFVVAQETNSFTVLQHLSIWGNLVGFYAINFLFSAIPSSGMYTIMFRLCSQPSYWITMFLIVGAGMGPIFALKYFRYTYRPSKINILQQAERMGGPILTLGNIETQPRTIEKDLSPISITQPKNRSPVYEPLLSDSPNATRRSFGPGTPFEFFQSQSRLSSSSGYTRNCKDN", "note": "Protocols differ between the studies behind these lines. Changes are numbered by the printed parent chain. ± gives the spread as reported.", "UniProt Q9NR56, sequence (whole entry, looked up)": "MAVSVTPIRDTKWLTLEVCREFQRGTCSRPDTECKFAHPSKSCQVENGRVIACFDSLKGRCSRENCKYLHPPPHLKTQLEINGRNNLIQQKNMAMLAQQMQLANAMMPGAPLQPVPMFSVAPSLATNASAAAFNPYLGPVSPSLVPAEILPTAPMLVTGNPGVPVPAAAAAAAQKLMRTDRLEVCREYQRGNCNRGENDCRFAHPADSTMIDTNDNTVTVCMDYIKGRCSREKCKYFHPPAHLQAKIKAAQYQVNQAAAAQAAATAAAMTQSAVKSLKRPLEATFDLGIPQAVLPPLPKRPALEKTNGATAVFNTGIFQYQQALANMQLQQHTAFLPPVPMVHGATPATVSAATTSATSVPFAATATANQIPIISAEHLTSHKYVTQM", "UniProt P94426, sequence (whole entry, looked up)": "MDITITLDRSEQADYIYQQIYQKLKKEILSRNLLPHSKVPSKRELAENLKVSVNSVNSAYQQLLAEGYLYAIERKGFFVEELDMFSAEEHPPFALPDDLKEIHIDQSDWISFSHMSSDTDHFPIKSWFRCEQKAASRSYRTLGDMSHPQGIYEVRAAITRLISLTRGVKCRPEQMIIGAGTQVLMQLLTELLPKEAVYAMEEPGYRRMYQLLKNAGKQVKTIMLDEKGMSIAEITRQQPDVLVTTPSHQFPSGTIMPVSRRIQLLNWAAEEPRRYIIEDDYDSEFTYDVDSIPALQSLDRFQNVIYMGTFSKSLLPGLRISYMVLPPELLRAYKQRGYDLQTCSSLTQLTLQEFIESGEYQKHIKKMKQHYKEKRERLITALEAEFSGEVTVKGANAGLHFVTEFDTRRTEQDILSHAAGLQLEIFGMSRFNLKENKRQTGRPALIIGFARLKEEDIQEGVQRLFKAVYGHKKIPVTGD", "UniProt P26358, sequence (whole entry, looked up)": "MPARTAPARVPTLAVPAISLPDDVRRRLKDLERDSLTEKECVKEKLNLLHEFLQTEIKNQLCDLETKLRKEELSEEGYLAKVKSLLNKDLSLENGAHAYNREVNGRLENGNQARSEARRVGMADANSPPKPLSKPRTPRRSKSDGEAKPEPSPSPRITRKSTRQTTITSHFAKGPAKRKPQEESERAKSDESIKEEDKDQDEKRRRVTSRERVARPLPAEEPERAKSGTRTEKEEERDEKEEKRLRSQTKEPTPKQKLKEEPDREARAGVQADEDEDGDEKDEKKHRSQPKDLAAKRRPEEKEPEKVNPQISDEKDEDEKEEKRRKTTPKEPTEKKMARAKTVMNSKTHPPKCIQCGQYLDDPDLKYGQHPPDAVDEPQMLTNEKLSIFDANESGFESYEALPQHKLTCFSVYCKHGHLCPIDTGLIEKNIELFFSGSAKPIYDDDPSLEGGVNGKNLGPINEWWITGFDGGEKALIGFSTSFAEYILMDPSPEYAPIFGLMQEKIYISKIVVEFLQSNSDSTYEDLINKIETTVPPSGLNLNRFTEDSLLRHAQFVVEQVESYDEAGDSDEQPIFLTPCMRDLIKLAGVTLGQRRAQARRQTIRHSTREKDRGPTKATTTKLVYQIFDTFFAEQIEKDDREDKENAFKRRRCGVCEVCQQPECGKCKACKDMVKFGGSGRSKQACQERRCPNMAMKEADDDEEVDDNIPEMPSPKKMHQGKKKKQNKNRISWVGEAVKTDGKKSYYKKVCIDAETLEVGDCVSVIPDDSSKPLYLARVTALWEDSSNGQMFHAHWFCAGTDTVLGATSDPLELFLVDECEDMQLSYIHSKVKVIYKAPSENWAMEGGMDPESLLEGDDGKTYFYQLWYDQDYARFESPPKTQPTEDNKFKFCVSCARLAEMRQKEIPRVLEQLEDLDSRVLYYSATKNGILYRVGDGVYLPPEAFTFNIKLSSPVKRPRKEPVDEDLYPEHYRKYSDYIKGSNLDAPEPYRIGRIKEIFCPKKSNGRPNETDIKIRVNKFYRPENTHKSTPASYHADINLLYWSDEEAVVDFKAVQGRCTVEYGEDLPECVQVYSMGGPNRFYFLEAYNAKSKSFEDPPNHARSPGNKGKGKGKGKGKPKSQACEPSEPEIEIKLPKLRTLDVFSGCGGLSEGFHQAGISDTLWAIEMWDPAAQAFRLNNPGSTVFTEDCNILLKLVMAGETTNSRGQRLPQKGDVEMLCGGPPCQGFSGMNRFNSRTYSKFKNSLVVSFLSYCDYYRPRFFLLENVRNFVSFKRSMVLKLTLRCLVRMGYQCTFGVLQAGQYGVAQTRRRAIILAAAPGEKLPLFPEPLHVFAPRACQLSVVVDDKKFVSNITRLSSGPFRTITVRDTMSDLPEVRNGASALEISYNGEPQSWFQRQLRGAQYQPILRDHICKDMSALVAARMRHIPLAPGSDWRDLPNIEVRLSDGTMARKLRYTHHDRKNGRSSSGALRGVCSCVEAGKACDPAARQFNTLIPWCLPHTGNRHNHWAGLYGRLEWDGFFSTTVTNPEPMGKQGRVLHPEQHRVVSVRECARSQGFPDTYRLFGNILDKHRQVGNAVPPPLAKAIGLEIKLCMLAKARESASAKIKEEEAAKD", "UniProt P19838, sequence (whole entry, looked up)": "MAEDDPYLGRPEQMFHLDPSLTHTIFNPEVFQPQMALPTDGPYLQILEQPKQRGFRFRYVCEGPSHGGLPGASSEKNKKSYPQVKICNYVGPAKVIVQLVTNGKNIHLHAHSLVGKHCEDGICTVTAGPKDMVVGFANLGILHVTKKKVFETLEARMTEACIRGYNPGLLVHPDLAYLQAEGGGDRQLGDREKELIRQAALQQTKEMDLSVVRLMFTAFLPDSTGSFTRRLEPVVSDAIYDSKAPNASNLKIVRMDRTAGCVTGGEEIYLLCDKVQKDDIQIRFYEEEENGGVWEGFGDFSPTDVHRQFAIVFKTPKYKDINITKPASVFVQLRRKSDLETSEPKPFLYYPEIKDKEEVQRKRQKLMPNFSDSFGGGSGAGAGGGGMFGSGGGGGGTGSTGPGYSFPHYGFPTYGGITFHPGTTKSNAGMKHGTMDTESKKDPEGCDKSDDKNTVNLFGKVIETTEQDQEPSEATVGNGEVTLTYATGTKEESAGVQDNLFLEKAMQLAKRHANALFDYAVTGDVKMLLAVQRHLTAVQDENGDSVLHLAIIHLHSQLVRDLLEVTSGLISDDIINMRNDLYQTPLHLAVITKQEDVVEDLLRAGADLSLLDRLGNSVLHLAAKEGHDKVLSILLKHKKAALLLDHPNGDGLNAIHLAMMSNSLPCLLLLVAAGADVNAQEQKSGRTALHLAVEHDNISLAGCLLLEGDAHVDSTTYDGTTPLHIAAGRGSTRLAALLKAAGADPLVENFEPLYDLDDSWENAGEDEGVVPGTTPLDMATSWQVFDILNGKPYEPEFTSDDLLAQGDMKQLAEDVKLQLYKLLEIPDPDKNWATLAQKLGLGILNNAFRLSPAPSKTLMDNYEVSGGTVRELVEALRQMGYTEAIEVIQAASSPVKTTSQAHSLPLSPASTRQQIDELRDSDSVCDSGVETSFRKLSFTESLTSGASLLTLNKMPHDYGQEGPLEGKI", "UniProt P08199, sequence (whole entry, looked up)": "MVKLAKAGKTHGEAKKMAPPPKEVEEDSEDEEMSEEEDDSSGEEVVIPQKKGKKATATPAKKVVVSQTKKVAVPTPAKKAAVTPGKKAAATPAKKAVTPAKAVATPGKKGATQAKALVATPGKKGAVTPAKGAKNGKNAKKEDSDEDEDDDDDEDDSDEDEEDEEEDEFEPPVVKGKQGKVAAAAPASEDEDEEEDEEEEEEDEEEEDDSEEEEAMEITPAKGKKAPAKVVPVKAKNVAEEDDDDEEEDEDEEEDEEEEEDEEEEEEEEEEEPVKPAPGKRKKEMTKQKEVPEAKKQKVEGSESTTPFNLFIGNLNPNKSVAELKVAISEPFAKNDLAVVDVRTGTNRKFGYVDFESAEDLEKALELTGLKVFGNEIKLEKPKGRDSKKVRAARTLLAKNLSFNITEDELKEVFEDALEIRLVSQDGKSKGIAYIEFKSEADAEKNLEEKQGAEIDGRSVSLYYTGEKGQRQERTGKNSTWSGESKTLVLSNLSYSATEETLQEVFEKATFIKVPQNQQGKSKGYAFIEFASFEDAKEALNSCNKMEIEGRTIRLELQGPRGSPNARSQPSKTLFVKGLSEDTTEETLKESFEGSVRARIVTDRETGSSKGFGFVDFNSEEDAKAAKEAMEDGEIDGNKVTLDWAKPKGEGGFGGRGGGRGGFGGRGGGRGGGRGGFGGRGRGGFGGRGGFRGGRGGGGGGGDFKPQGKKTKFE", "UniProt Q61851, sequence (whole entry, looked up)": "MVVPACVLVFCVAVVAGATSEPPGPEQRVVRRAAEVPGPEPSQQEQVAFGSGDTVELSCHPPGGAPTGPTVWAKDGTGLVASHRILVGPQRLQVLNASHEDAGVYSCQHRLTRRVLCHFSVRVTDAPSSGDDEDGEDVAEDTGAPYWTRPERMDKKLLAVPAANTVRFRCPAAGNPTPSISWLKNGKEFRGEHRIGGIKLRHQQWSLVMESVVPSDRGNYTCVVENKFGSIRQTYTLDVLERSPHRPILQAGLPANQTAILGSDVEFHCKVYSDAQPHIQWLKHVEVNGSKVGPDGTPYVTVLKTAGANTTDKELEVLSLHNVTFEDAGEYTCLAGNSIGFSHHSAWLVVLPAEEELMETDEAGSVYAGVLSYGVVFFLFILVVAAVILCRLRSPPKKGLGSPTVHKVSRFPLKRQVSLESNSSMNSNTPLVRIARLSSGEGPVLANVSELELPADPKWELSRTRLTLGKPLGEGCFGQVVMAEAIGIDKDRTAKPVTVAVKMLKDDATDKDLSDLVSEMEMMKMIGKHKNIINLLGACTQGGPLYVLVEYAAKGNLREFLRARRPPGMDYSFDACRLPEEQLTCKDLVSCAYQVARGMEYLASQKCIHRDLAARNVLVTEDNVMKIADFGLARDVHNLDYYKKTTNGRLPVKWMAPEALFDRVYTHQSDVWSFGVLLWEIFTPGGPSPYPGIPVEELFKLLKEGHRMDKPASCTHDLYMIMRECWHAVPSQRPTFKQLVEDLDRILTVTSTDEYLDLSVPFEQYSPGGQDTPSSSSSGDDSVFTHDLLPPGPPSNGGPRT"}
{"Substance": "GGGAGUGUGUACGAGGCAUUAGGCCGCCGAUGGUUUUGUGGCCGUUUGAGGUUCCUACGGCGGCUU (structured RNA; 2'-fluoro C/U, 3' inverted dT)", "target or system": "FGFR3 23-375 (Homo sapiens, UniProt P22607)", "test": "bead flow cytometry", "test system": "folded RNA", "conditions": "100 nM", "endpoint": "binding", "result": "binds"}
{"Substance": "TATATGTTGTTAATATTGCACAGAAACAAGCTGCT (dsDNA)", "target or system": "NAC transcription factor full length assumed", "test": "competition EMSA", "test system": "double-stranded DNA, one strand shown", "endpoint": "binding", "result": "no binding"}
{"Substance": "GGAUGCCUCCCGAGUGCAUCC (structured RNA)", "target or system": "NCL 299-459 (Mesocricetus auratus, UniProt P08199)", "test": "NMR", "test system": "folded RNA", "endpoint": "binding", "result": "binds"}
{"Substance": "GUUCGCGAAGUAACCCUUCGUGGACAUUUGGUCAAUUUGAAACAAUACAGAGAUGAUCAGCAGUUCCCCUGCAUAAGGAUGAACCGUUUUACAAAGAGAGGUAUUUCGUUUU (structured RNA)", "target or system": "PRP24 1-444 (Saccharomyces cerevisiae, UniProt P49960)", "test": "EMSA", "test system": "folded RNA", "conditions": "Hill coefficient about 0.5", "endpoint": "binding", "result": "binds"}
{"Substance": "CGCGGGGUGGAGCAGCCUGGUAGCUCGUCGGGCUCAUAACCCGAAGAUCGUCGGUUCAAAUCCGGCCCCCGCAACCA (tRNA (Escherichia coli); cloverleaf, unmodified)", "target or system": "trmJ 1-246 R82A (Escherichia coli, UniProt P0AE01)", "test": "EMSA", "test system": "folded RNA", "conditions": "Mg2+ 5 mM, with: sinefungin 500 µM", "endpoint": "binding", "result": "no binding"}
{"Substance": "AGTTGAGGGGACTTTCCCAGGC (dsDNA)", "target or system": "NFKB1 1-433 (Homo sapiens, UniProt P19838)", "test": "competition DSE-FRET", "test system": "double-stranded DNA, one strand shown", "endpoint": "binding", "result": "binds"}
{"Substance": "TTGTTAACACGTGATTTTGT (dsDNA)", "target or system": "protein (Oryza sativa, UniProt Q7XXC1)", "test": "EMSA", "test system": "double-stranded DNA, one strand shown", "endpoint": "binding", "result": "binds"}
{"Substance": "P1 S10D T11D S42D", "target or system": "SPC42 residues 1-134", "test": "yeast two-hybrid", "conditions": "read off a plot, with: Cdc31", "how to read": "reference: unchanged protein, higher = stronger interaction", "endpoint": "relative interaction", "result": 0.57}
{"Substance": "CCUGUCUCGCUUUUCCCCUCCGCUGCGGCCAC (ssRNA (Homo sapiens); hairpin)", "target or system": "MBNL1 1-255 (Homo sapiens, UniProt Q9NR56)", "test": "NMR titration", "test system": "folded RNA", "endpoint": "binding", "result": "binds"}
{"Substance": "CGCGCGCGCGCGAGCGAGCGG (ssDNA; single strand, non-G4)", "target or system": "DNMT1 1-1616 (Homo sapiens, UniProt P26358)", "test": "ELISA", "test system": "single-stranded DNA", "endpoint": "binding", "result": "no binding"}
{"Substance": "CTTCTGATAGGATCAAAAAGTTATAATTGGTACTTTTCATCATACCAAAGAGAAGTCAGAATGATAAGAAAATACCG (dsDNA (Bacillus subtilis))", "target or system": "gabR full length assumed", "test": "BLI", "test system": "double-stranded DNA, one strand shown", "endpoint": "Kd", "result": "6.4 ± 0.9 µM"}
{"Substance": "AGGGGGCCGUGGGGUGGGAGCUGGGG (G-quadruplex RNA; G4)", "target or system": "PPP1CC (Homo sapiens, UniProt P36873)", "test": "EMSA", "test system": "folded RNA", "conditions": "100 nM", "endpoint": "binding", "result": "binds"}
{"Substance": "P2 W127A", "target or system": "APOBEC3G Renilla luciferase fusion (Homo sapiens)", "test": "BRET", "test system": "293T", "conditions": "read off a plot", "how to read": "reference: unchanged protein, higher = more binding", "endpoint": "relative binding", "result": 0.13}
{"Substance": "TATATGGGTTTAATATTGACAAGAAACAAGCTGCT (dsDNA)", "target or system": "NAC transcription factor full length assumed", "test": "competition EMSA", "test system": "double-stranded DNA, one strand shown", "endpoint": "binding", "result": "no binding"}
{"Substance": "P1 S10D T11D S42D S45D", "target or system": "SPC42 residues 1-134", "test": "yeast two-hybrid", "conditions": "read off a plot, with: Cdc31", "how to read": "reference: unchanged protein, higher = stronger interaction", "endpoint": "relative interaction", "result": 0.27}
{"Substance": "CTTCTGATACCATCAAAAAGTTATAATTGGTACTTTTCATCATACCAAAGAGAAGTCAGAATGATAAGAAAATACCG (dsDNA (Bacillus subtilis); nicked duplex)", "target or system": "gabR full length assumed", "test": "BLI", "test system": "double-stranded DNA, one strand shown", "conditions": "with: GABA", "endpoint": "Kd", "result": "0.013 ± 0.0009 µM"}
{"Substance": "DNA 1 CCACTGCTCACGTACAGAGCTGT / DNA 2 CAGCTCTGTACGTGAGCAGTGGA (dsDNA; 5mC opposite G, 23 bp)", "target or system": "TDG 111-308 N140A (Homo sapiens, UniProt Q13569)", "test": "EMSA", "test system": "double-stranded DNA", "endpoint": "binding", "result": "no binding"}
{"Substance": "P3 N181Q", "target or system": "ALA2 (Arabidopsis thaliana)", "test": "pull-down", "test system": "yeast membranes", "conditions": "read off a plot", "how to read": "reference: unchanged protein, higher = more binding", "endpoint": "relative binding", "result": 0.09}
{"Substance": "CCGCCGAUGGUUUUGUGGCCGUUUGAGGUUCCUACGGCGG (structured RNA; hairpin, 2'-fluoro C/U, 3' inverted dT)", "target or system": "Fgfr3 21-369 (Mus musculus, UniProt Q61851)", "test": "bead flow cytometry", "test system": "folded RNA", "conditions": "100 nM", "endpoint": "binding", "result": "binds"}
{"Substance": "CCUCCGCUGC (ssRNA (Homo sapiens))", "target or system": "MBNL1 1-92 (Homo sapiens, UniProt Q9NR56)", "test": "NMR titration", "test system": "RNA", "endpoint": "binding", "result": "binds"}
{"Substance": "DNA 1 ATTTCAGCTACTCCGATGGCCCATATGCGGATC / DNA 2 CTAGGGCATATGGGCCATCGGAG (dsDNA)", "target or system": "T1, cas1/cas2 1-305; 1-94 (Escherichia coli)", "test": "EMSA", "test system": "double-stranded DNA", "conditions": "binary complex, partial dissociation", "endpoint": "binding", "result": "binds"}
{"note": "Some of these lines once more:"}
{"Substance": "TATATGGGTTTAATATTGACAAGAAACAAGCTGCT (dsDNA)", "target or system": "NAC transcription factor full length assumed", "test": "competition EMSA", "test system": "double-stranded DNA, one strand shown", "endpoint": "binding", "result": "no binding"}
{"Substance": "GGGAGUGUGUACGAGGCAUUAGGCCGCCGAUGGUUUUGUGGCCGUUUGAGGUUCCUACGGCGGCUU (structured RNA; 2'-fluoro C/U, 3' inverted dT)", "target or system": "FGFR3 23-375 (Homo sapiens, UniProt P22607)", "test": "bead flow cytometry", "test system": "folded RNA", "conditions": "100 nM", "endpoint": "binding", "result": "binds"}
{"Substance": "CCUCCGCUGC (ssRNA (Homo sapiens))", "target or system": "MBNL1 1-92 (Homo sapiens, UniProt Q9NR56)", "test": "NMR titration", "test system": "RNA", "endpoint": "binding", "result": "binds"}
